Assay results collected from several papers.
Compare with care: the assays were run in different laboratories. Values joined by “and” are separate records of one study, mostly repeats; a detail may differ. ± marks the error that the study gave. In brackets after ≈: the same amount, converted by molar mass.

Under “tissue to peel content ratio”, `COc1ccc(-c2cc(=O)c3c(OC)c(OC)c(OC)c(OC)c3o2)cc1` is recorded as 0.015% (C57BL/6 mouse, male, brain; oral, 1% w/w in diet, 6 weeks, orange peel extract diet; baseline: content in orange peel).
With `COC(=O)N[C@H](C(=O)N[C@@H](Cc1ccccc1)[C@@H](O)CN(Cc1ccc(-c2ccccn2)cc1)NC(=O)[C@@H](NC(=O)OC)C(C)(C)C)C(C)(C)C` the Vd/F was 133 L (population PK model; pregnant women, second trimester; oral, median, together with: with tenofovir).
`CC1=C2C[C@H]3[C@@H](CC[C@@H]4C[C@H](NS(C)(=O)=O)CC[C@@]43C)[C@@H]2CC[C@@]2(C1)O[C@@H]1C[C@H](C)CN[C@H]1[C@H]2C` gave a Tmax of 5 h (patients, plasma; oral, 40 mg daily, day 22, cycle 1).
`Cc1nc2cccc(OCC(C)(C)C(=O)NC(C)C)c2c(N)c1C(=O)O` gave an AUC(0-t) of 232 ng·h/mL (Sprague-Dawley rat, plasma; oral, 100 mg/kg/day).
For `C[C@](N)(Cc1ccc(O)c(O)c1)C(=O)O`, the solubility was 300 µg/mL (≈ 1420 µM) (supercritical carbon dioxide; 5 h, 343 K, 24 MPa, density 724.9 kg/m3).
For `CN1CCN(c2ccc(Nc3ncc4cc(C#N)c(=O)n(C5CCCC5)c4n3)cc2)CC1`, the Tmax was 0.5 h (NIH Swiss nude mice, intracerebral U87 tumour, brain tumour; intravenous, 25 mg/kg, together with: gefitinib 200 mg/kg oral 1 h before).
`CS(=O)(=O)Nc1ccc(C(=O)O[C@@H](Cc2c(Cl)c[n+]([O-])cc2Cl)c2ccc(OC(F)F)c(OCC3CC3)c2)cc1OCC1CC1` gave a Tmax of 1 to 2 h (human, plasma; inhaled, 7 days, repeat dose once daily, steady state).
For `Cc1cc(Nc2ncc(Cl)c(Nc3ccccc3S(=O)(=O)C(C)C)n2)c(OC(C)C)cc1C1CCNCC1`, the Tss,max was 6 h and 8.1 h (refers to: total drug; human, plasma; oral, 750 mg/day).
`CCOc1c([C@H](C)n2nc(C)c3c(N)ncnc32)cc(Cl)c(F)c1[C@@H]1CNC(=O)C1` has an exposure difference of 65 to 80% (Japanese patients, plasma; oral, dose not given, cycle 1 day 15; baseline: Japanese over US patients).
For `CC(C)=CCC[C@](C)(O[C@@H]1O[C@H](CO)[C@@H](O)[C@H](O)[C@H]1O)[C@H]1CC[C@]2(C)[C@@H]1[C@H](O)C[C@@H]1[C@@]3(C)CC[C@H](O[C@@H]4O[C@H](CO)[C@@H](O)[C@H](O)[C@H]4O[C@@H]4O[C@H](CO)[C@@H](O)[C@H](O)[C@H]4O)C(C)(C)[C@@H]3CC[C@]12C`, “post-preparative stability accuracy” read 96.8 ± 8% (rat, extracted plasma QC samples; 1.0 µg/mL, 24 h, 15 °C, autosampler).
`Cc1[nH]c(=O)c(CNC(=O)c2ccc(Br)o2)c2c1CCCC2` gave a kinetic solubility of 101 µg/mL (≈ 277 µM) (U-HPLC; 20% DMSO in water).
For `CN[C@H](CC(C)C)C(=O)N[C@H]1C(=O)N[C@@H](CC(N)=O)C(=O)N[C@H]2C(=O)N[C@H]3C(=O)N[C@H](C(=O)N[C@H](C(=O)O)c4cc(O)cc(O)c4-c4cc3ccc4O)[C@H](O)c3ccc(c(Cl)c3)Oc3cc2cc(c3O[C@@H]2O[C@H](CO)[C@@H](O)[C@H](O)[C@H]2O[C@H]2C[C@](C)(N)[C@H](O)[C@H](C)O2)Oc2ccc(cc2Cl)[C@H]1O`, “time above MIC” read 31% (microdialysis; pig, Danish Landrace, cortical bone; intravenous, 1000 mg over 100 min, 450 min dosing interval, together with: 2.0 µg/mL MIC; baseline: dosing interval).
`C[C@@H]1CCN(C(=O)CC#N)C[C@@H]1N(C)c1ncnc2[nH]ccc12` gave an unbound fraction of 0.769 (equilibrium dialysis; control rats, fresh plasma; 10 µg/mL, 24 h, 37 °C).
`CCCC[C@@H]1NC(=O)[C@@H](NC(=O)[C@H](CCC(=O)O)NC(=O)CNC(=O)CN2CCN(CC(=O)O)CCN(CC(=O)O)CCN(CC(=O)O)CC2)CCCCNC(=O)C[C@@H](C(N)=O)NC(=O)[C@H](C(C)C)NC(=O)[C@@H]2CCCN2C(=O)[C@H](CCCNC(=N)N)NC(=O)CNC(=O)[C@H](Cc2c[nH]c3ccccc23)NC(=O)[C@H](CCCNC(=N)N)NC(=O)[C@@H](Cc2ccccc2)NC(=O)[C@H](Cc2c[nH]cn2)NC(=O)[C@H](CCC(=O)O)NC1=O` [indium-111 labelled] — result for “lung to tissue ratio”: 0.2 (refers to: liver; C57 mice; intravenous, 0.037 MBq, 2 h).
The concentration of `COc1cc(/C=C/C(=O)CC(=O)/C=C/c2ccc(O)c(OC)c2)ccc1O` is reported as 470 nM (male C3H/HeJ mice, bone marrow; oral, 500 mg/kg, 30 min).
`O=C1CN(/N=C/c2ccc(-c3ccc([N+](=O)[O-])cc3)o2)C(O)=N1` — result for “hepatocyte vacuolization score”: 0 (Sprague-Dawley rat, male, liver; oral, 100 mg/kg, 6 h, single low dose; direction not given).
`CCCC[C@H](NC(C)=O)C(=O)N[C@H]1CCC(=O)NC[C@@H](C(=O)N[C@@H](Cc2c[nH]c3ccccc23)C(N)=O)NC(=O)[C@H](CCCNC(=N)N)NC(=O)[C@@H](Cc2ccccc2)NC(=O)[C@H](Cc2c[nH]cn2)NC1=O` gave a Tmax of 0.56 h (beagle dog, female, plasma; subcutaneous, 40.0 mg/kg daily, day 1).
`COc1cc2c(cc1OC)CN(CCc1ccc(NC(=O)c3cccc4c(=O)c5cccc(OC)c5[nH]c34)cc1)CC2` has a solubility of 4270 ± 310 µg/mL (≈ 7580 µM) (Cremophor EL; 24 h, 37 °C).
`CC(C)C[C@H](NC(=O)[C@H](CC(C)C)NC(=O)[C@@H](Cc1c[nH]c2ccccc12)NC(=O)[C@H](Cc1ccccc1)NC(=O)[C@@H](NC(=O)[C@@H](N)CCCCN)[C@@H](c1ccccc1)c1c[nH]c2ccccc12)C(N)=O` gave an HPLC retention of 44.3 %B (RP-HPLC Kinetex Biphenyl; acetonitrile/water TFA gradient).
With `COc1cc2c(cc1OC)[C@@H]1Cc3ccc(OC)c(OC)c3CN1CC2` the measured concentration was 639 ± 13.5 ng/mL (rat plasma QC sample; 640 ng/mL nominal, 24 h, medium QC level autosampler stability).
`Cc1cc(Oc2cnc(C)nc2)cc(C(=O)Nc2ccc(F)cn2)n1` — result for “unbound plasma concentration”: 390 nM (Sprague-Dawley rat, male, plasma; oral, 10 mg/kg, 1 h).
`Cc1ccc(NC(=O)c2ccc(CN3CCN(C)CC3)cc2)cc1Nc1nccc(-c2cncc(-c3oncc3C)c2)n1` gave a dose-normalised AUC(0-inf) of 642 ng·h/mL/mg (Parkinson's disease patients, plasma; oral, 50.0 mg once daily, day 7, 7-day dosing, mean).
`CNCc1ccc(-c2[nH]c3cc(F)cc4c3c2CCNC4=O)cc1` has a half-life of 19.9 h (human patients, plasma; oral, 160 mg once daily, day 1, single dose, arithmetic mean).
`COc1ccc(-c2nc(OCC(F)(F)F)nn2-c2ccc(OC)cc2)cc1` [carbon-11 labelled] — result for “time to peak brain radioactivity”: 9 min (PET; rhesus monkey, whole brain; iv, dose not given, baseline).
For `CC(=O)O[C@H]1C(=O)[C@@]2(C)[C@H]([C@H](OC(=O)c3ccccc3)[C@]3(O)C[C@H](OC(=O)[C@H](O)[C@@H](NC(=O)c4ccccc4)c4ccccc4)C(C)=C1C3(C)C)[C@]1(OC(C)=O)CO[C@@H]1C[C@@H]2O`, the clearance was 270 ± 48.5 mL/min (non-compartmental; human patients, plasma; intravenous, 200 mg/m^2, together with: lenvatinib 6 mg twice daily).
`O=S(=O)(c1cccc2cnccc12)N1CCCNCC1` — result for “recovered dose in apparatus”: 11.3 ± 3% (rat pulmonary arterial hypertension, isolated perfused lung; pulmonary artery, 3 mg/kg, 2 h).
`CN(C)C(=N)N=C(N)N` — result for “hepatocyte vacuolization score”: 0 (Sprague-Dawley rat, male, liver; oral, 100 mg/kg, 6 h, single low dose; direction not given).
The concentration of `CSc1cc(C)nc(SC)c1NC(=O)CN1CCN(CCSc2nc3ccccc3[nH]2)CC1` is reported as 83 ng/g (mouse Crl:CD1 (ICR) female, cerebrum; intranasal repeated, 162 µg in 7 N HCl, 5 min, 7 days dosing).
For `CCCCCCOC(=O)NC(=N)c1ccc(NCc2nc3cc(C(=O)N(CCC(=O)OCC)c4ccccn4)ccc3n2C)cc1`, “change in QTcI” read -4.9 ms (healthy human; oral, 150 mg single dose, 1.5 to 3 h; baseline: baseline, time-matched).
With `Cc1cc(Nc2cc3ncccc3c(N[C@@H]3C[C@H]4CC[C@@H](C3)N4CCC#N)n2)n[nH]1` the Cmax was 64.5 ng/mL (beagle dog, female, plasma; oral, 30 mg/kg/day, last day of 4 weeks).
`C[C@]12CC[C@@H]3c4ccc(O)cc4CC[C@H]3[C@@H]1C[C@@H](O)[C@@H]2O`: “minimum serum concentration” 0 ng/mL (GC-MS; breast cancer women on NSAI, serum; vaginal, 0.03 mg, 6 h, day 0).
`COc1ccc2cc3[n+](cc2c1OC)CCc1cc2c(cc1-3)OCO2` gave a measured concentration of 31 ± 1.85 ng/mL (rat plasma QC sample; 32 ng/mL nominal, 24 h, 23 °C, medium QC level storage stability).
`C[N+]1(CC(=O)OC2CCCC2)CCCCC1.[I-]` has a half-life of > 1 h (metabolic stability; human, liver microsomes; 1 µM, pH 7.4).
With `CN1CCN(c2ccc3nc(-c4c(N)c5c(F)cccc5[nH]c4=O)[nH]c3c2)CC1` the terminal half-life was 5.4 h (NOD/SCID mice, male, blood or plasma; oral, 30 mg/kg once daily, day 1).
`CCCSc1nc(N[C@@H]2C[C@H]2c2ccc(F)c(F)c2)c2nnn([C@@H]3C[C@H](OCCO)[C@@H](O)[C@H]3O)c2n1` has an AUC of 11.9 µM·h (Wistar Han rat, male, plasma; oral, 20 mg/kg/day, day 1, carcinogenicity study).
The half-life of `CC[C@H](C)[C@@H]1NC(=O)[C@H](Cc2ccc(O)cc2)NC(=O)[C@@H](N)CSSC[C@@H](C(=O)N2CCC[C@H]2C(=O)N[C@@H](CC(C)C)C(=O)NCC(N)=O)NC(=O)[C@H](CC(N)=O)NC(=O)[C@H](CCC(N)=O)NC1=O` is reported as 0.243 ± 0.07 h (microdialysis, radioimmunoassay; C57BL/6J male mice, wild type, hippocampus extracellular fluid; intranasal, 12 µg, time to half of Cmax).
`CC(C)=CCC[C@](C)(O[C@@H]1O[C@H](CO[C@@H]2O[C@H](CO)[C@@H](O)[C@H](O)[C@H]2O)[C@@H](O)[C@H](O)[C@H]1O)[C@H]1CC[C@]2(C)[C@@H]1[C@H](O)C[C@@H]1[C@@]3(C)CC[C@H](O[C@@H]4O[C@H](CO)[C@@H](O)[C@H](O)[C@H]4O[C@@H]4O[C@H](CO)[C@@H](O)[C@H](O)[C@H]4O)C(C)(C)[C@@H]3CC[C@]12C` — result for “post-preparative stability accuracy”: 102 ± 7.5% (rat, extracted plasma QC samples; 5.0 µg/mL, 24 h, 15 °C, autosampler).
For `Cc1ccc(NC(=O)c2ccc(CN3CCNCC3)cc2)cc1Nc1nccc(-c2cccnc2)n1`, “volume of distribution” read 828 L (human, plasma; 400 mg/day imatinib, day 10 of cycle 1, metabolite of imatinib alone, mean).
Under “AUC(0-24) geometric LS mean”, `CC(C)[C@@H](CS(=O)(=O)C(C)C)N1C(=O)[C@@](C)(CC(=O)O)C[C@H](c2cccc(Cl)c2)[C@H]1c1ccc(Cl)cc1` is recorded as 2180 ng·h/mL (human, plasma; oral, 60 mg, new tablet fasted).
The measured concentration of `O=C(O)[C@H]1/C(=C/CO)O[C@@H]2CC(=O)N21` is reported as 2410 ± 92 ng/mL (rat plasma; 2400 ng/mL, three freeze-thaw cycles).
`C[C@H](N)C(=O)N[C@H](Cc1c[nH]c2ccccc12)C(=O)N[C@@H](Cc1ccccc1)C(=O)N[C@H](C(=O)N1CCC(C(N)=O)CC1)[C@@H](c1ccccc1)c1c[nH]c2ccccc12` has an HPLC retention of 53.2 %B (RP-HPLC Jupiter Proteo; acetonitrile/water TFA gradient).
The logP of `FC(F)(F)c1cccc(Nc2ncnc3ccccc23)c1` is reported as 4.1 (potentiometric, optimised protocol; octanol/water, 0.15 M KCl; neutral species).
`CCN(CC)CCNC(=O)c1c(C)[nH]c(/C=C2\C(=O)Nc3ccc(F)cc32)c1C`: “minimum trough plasma concentration” 26.9 ng/mL (human, plasma; oral, 20 mg/m2, day 14).
For `COc1ccc(-c2oc3c(OC)c(OC)c(OC)c(OC)c3c(=O)c2OC)cc1OC`, “tissue to peel content ratio” read 0.019% (C57BL/6 mouse, male, brain; oral, 1% w/w in diet, 6 weeks, orange peel extract diet; baseline: content in orange peel).

Excerpt of the above:
With `Cc1cc(Nc2cc3ncccc3c(N[C@@H]3C[C@H]4CC[C@@H](C3)N4CCC#N)n2)n[nH]1` the Cmax was 64.5 ng/mL (beagle dog, female, plasma; oral, 30 mg/kg/day, last day of 4 weeks).
`C[C@]12CC[C@@H]3c4ccc(O)cc4CC[C@H]3[C@@H]1C[C@@H](O)[C@@H]2O`: “minimum serum concentration” 0 ng/mL (GC-MS; breast cancer women on NSAI, serum; vaginal, 0.03 mg, 6 h, day 0).
`COc1ccc2cc3[n+](cc2c1OC)CCc1cc2c(cc1-3)OCO2` gave a measured concentration of 31 ± 1.85 ng/mL (rat plasma QC sample; 32 ng/mL nominal, 24 h, 23 °C, medium QC level storage stability).
`C[N+]1(CC(=O)OC2CCCC2)CCCCC1.[I-]` has a half-life of > 1 h (metabolic stability; human, liver microsomes; 1 µM, pH 7.4).
With `CN1CCN(c2ccc3nc(-c4c(N)c5c(F)cccc5[nH]c4=O)[nH]c3c2)CC1` the terminal half-life was 5.4 h (NOD/SCID mice, male, blood or plasma; oral, 30 mg/kg once daily, day 1).
